{"data": "Published values from different studies", "cell line": "UACC-62", "note": "Protocols differ between the studies behind these lines. Values joined by “and” are separate records of one study, mostly repeats; a detail may differ."}
{"SMILES": "CCCC(CCC)C(=O)OCc1cn(-c2c3ccccc3nc3ccccc23)nn1", "assay": "NCI60 single-dose screen", "setting": "10 µM", "quantity": "growth percentage", "result": "87.7%"}
{"SMILES": "Cc1cc(C)n(-c2nc(-c3ccc(Cl)cc3)c3c(NC(=O)c4ccccc4)nnc-3[nH]2)n1", "assay": "SRB", "setting": "10 µM, NCI60 single-dose screen", "how to read": "reference: untreated", "quantity": "cell growth", "result": "76.8%"}
{"SMILES": "CCN(CC)c1ccc(C=NNC(=O)CSc2nc3ccccc3c(=O)n2Cc2ccc(S(N)(=O)=O)cc2)c(O)c1", "assay": "NCI five-dose screen", "quantity": "TGI", "result": "5.44 µM"}
{"SMILES": "S=C([S][Au-][P+](CCCCCC[P+]([Au-][S]C(=S)n1cccn1)(c1ccccc1)c1ccccc1)(c1ccccc1)c1ccccc1)n1cccn1", "assay": "cell growth, NCI-60 screen", "setting": "melanoma", "quantity": "log TGI", "result": "> -4 log10 M"}
{"SMILES": "O=C1NC(c2ccccc2)(c2ccccc2)C(=O)N1Cc1cn(-c2c3ccccc3nc3ccccc23)nn1", "assay": "NCI60 single-dose screen", "setting": "10 µM", "quantity": "growth percentage", "result": "72.4%"}
{"SMILES": "Cn1cncc1C1=CN(c2ncnc3[nH]cnc23)CCS1", "setting": "melanoma cell line", "quantity": "GI50", "result": "9.8 µM"}
{"SMILES": "COC(=O)/C=C1\\C(=O)C=C2C3CC4CC(CCC4(C)N21)C3(C)NC(C)=O (stereo not drawn)", "assay": "cell growth", "setting": "NCI screen", "quantity": "IC50", "result": "18.1 µM"}
{"SMILES": "CCCCN1CCN(c2ccc3nc(-c4ccc5nc(-c6cc(OC)ccc6OC)[nH]c5c4)[nH]c3c2)CC1", "assay": "SRB", "setting": "10 µM, 48 h", "quantity": "growth percent", "result": "109%"}
{"SMILES": "C#C[C@@]1(O)[C@@H](CO)O[C@@H](n2cc(Cl)c3c(N)ncnc32)[C@@H]1O", "assay": "SRB", "setting": "NCI-60 screen", "quantity": "TGI", "result": "0.383 µM"}
{"SMILES": "CCOC(=O)CSc1nc(-c2ccc(Cl)cc2)c2c(NC(=O)c3ccccc3)nnc-2[nH]1", "assay": "SRB", "setting": "10 µM, NCI60 single-dose screen", "how to read": "reference: untreated", "quantity": "cell growth", "result": "92.4%"}
{"SMILES": "CCCN1CCN(c2ccc3[nH]c(-c4ccc5[nH]c(-c6ccc(C(F)(F)F)cc6)nc5c4)nc3c2)CC1", "assay": "SRB", "setting": "10 µM, 48 h", "quantity": "growth percent", "result": "72.9%"}
{"SMILES": "O=C(Nc1nnc2n3c(nc(-c4ccc(Cl)cc4)c1-2)SCC3=O)c1ccccc1", "assay": "SRB", "setting": "10 µM, NCI60 single-dose screen", "how to read": "reference: untreated", "quantity": "cell growth", "result": "99.1%"}
{"SMILES": "CCCN1CCN(c2ccc3nc(-c4ccc5nc(-c6cc(OC)ccc6OC)[nH]c5c4)[nH]c3c2)CC1", "assay": "SRB", "setting": "10 µM, 48 h", "quantity": "growth percent", "result": "110%"}
{"SMILES": "Cc1cc(=O)[nH]n1-c1nc(-c2ccc(Cl)cc2)c2c(NC(=O)c3ccccc3)nnc-2[nH]1", "assay": "SRB", "setting": "10 µM, NCI60 single-dose screen", "how to read": "reference: untreated", "quantity": "cell growth", "result": "81.1%"}
{"SMILES": "CCCN1CCN(c2ccc3[nH]c(-c4ccc5[nH]c(-c6cc(OC)c(OC)c(OC)c6)nc5c4)nc3c2)CC1", "assay": "SRB", "setting": "10 µM, 48 h", "quantity": "growth percent", "result": "35.8%"}
{"SMILES": "C#C[C@@]1(O)[C@@H](CO)O[C@@H](n2cc(Br)c3c(N)ncnc32)[C@@H]1O", "assay": "SRB", "setting": "NCI-60 screen", "quantity": "TGI", "result": "11.8 µM and 12.9 µM"}
{"SMILES": "Cc1cc(-c2ccccc2)n(-c2nc(-c3ccc(Cl)cc3)c3c(NC(=O)c4ccccc4)nnc-3[nH]2)n1", "assay": "SRB", "setting": "10 µM, NCI60 single-dose screen", "how to read": "reference: untreated", "quantity": "cell growth", "result": "77.8%"}
{"SMILES": "CCCCN1CCN(c2ccc3[nH]c(-c4ccc5[nH]c(-c6ccc(OCC)c(OCC)c6)nc5c4)nc3c2)CC1", "assay": "SRB", "setting": "10 µM, 48 h", "quantity": "growth percent", "result": "17.7%"}
{"SMILES": "Cc1cc(=O)[nH]c(=O)n1Cc1cn(-c2cc3ccccc3oc2=O)nn1", "assay": "NCI60 single-dose screen", "setting": "10 µM", "quantity": "growth percentage", "result": "98%"}
{"SMILES": "COc1ccc(OC)c(-c2nc3ccc(-c4nc5ccc(N6CCN(C)CC6)cc5[nH]4)cc3[nH]2)c1", "assay": "SRB", "setting": "10 µM, 48 h", "quantity": "growth percent", "result": "104%"}
{"SMILES": "Cc1n[nH]c2nc(-c3ccc(Cl)cc3)c3c(NC(=O)c4ccccc4)nnc-3n12", "assay": "SRB", "setting": "10 µM, NCI60 single-dose screen", "how to read": "reference: untreated", "quantity": "cell growth", "result": "105%"}
